Results of several laboratories.
Protocols differ between the studies behind these lines. Values joined by “and” are separate records of one study, mostly repeats; a detail may differ.

| Compound | cell line | test | conditions | how to read | measurement | result |
| --- | --- | --- | --- | --- | --- | --- |
| Cc1c(Cl)cccc1Nc1ccccc1C(=O)[Se]CC(=O)Nc1cccc(C(F)(F)F)c1 | NCI60 renal subpanel | cell growth, inhibitor | five-dose |  | GI50 | 1.79 µM |
| C[C@H](NC(=O)CN)C(=O)NCC(=O)N[C@@H](C)C(=O)N[C@@H](C)C(=O)NCC(=O)NCC(=O)N[C@@H](C)C(=O)NCC(=O)NCC(=O)NCC(=O)NCC(=O)NCC(=O)NCC(=O)NCC(=O)N[C@@H](CCCCNC(=O)CCCC[C@@H]1SC[C@@H]2NC(=O)N[C@@H]21)C(N)=O | HEK293T-GFP cells | flow cytometry | concentration not given, together with: biotin-labelled peptide |  | binding rate | 0.56% and 0.59% and 0.49% |
| CCN(CC)CC(=O)Nc1cccc(-n2cc(-c3ccc4ccc(-c5cn(-c6cccc(NC(=O)CN(CC)CC)c6)nn5)cc4c3)nn2)c1 | RCC4 | PCR angiogenesis array, item: PGF | 5 x IC50, 6 h, normoxia | reference: untreated | fold regulation | -1.79 |
| C=CC(=O)N1[C@H](c2ccc3c(c2)OCO3)c2[nH]c3ccccc3c2C[C@@H]1C(=O)NC | rat DRG neurons |  | 10 µM, 48 h, together with: vincristine 40 nM |  | mean neuron degeneration | 11.5% |
| CCN(C(=O)c1cc(F)ccc1Oc1nncnc1N1CCC2(C1)CN([C@H](CCCN(C)CCOC)C(C)C)C2)C(C)C | BXPC-3 | cell growth or viability | 7 days |  | GI50 | > 10 µM |
| O=[N+]([O-])C(=C\Nc1ccccc1O)/C=N/c1ccccc1O | LDR | silenced CMV-GFP reporter derepression, qHTS |  |  | Emax | 21% |
| CO[C@@H]1[C@@H](OC(N)=O)[C@@H](O)[C@H](Oc2ccc3c(O)c(NC(=O)c4ccc(O)c(CC=C(C)C)c4)c(=O)oc3c2C)OC1(C)C | HCT-116 parental |  | 200 µM | reference: untreated | colony survival | 22.9% |
| COC(=O)c1cc(NC2=NC(=O)C(=Cc3ccc(C)cc3)S2)ccc1OC(C)=O | MCF7 | GC-MS, item: Adenosine | 1 µM | reference: DMSO | metabolite level | 0.01 fold change |
| Cc1cc(Cl)cc(-c2ccnc3cc(CN4C(=O)C5C(C4=O)C5(C)C)sc23)c1C[C@@H]1CNCCO1 (stereo partly shown) | CHP-212 parental | PI flow cytometry | 0.1 µM, 24 h |  | G2/M phase cells | 19.9% |
| Cc1ncsc1-c1ccc(C(C)NC(=O)C2CC(O)CN2C(=O)C(NC(=O)CCCCCCCCCCN2CCCC(Nc3ncc(Cl)c(Nc4ccccc4S(=O)(=O)C(C)C)n3)C2)C(C)(C)C)cc1 (stereo not shown) | 22Rv1 | RNA-seq, item: ZNF214 mRNA | concentration not given | reference: DMSO | log2 fold change | -3.7 |
| CN1CCCNC(=O)c2cccc(c2)C(=O)NCCCN(C)CCCNc2cccc3c2C(=O)c2cccc(c2C3=O)NCCC1 | SAS | annexin V/PI staining | 5 µM, 24 h, mean |  | apoptotic cells | 26.4% |
| Cc1ccncc1.[Cl-].[Cl-].[Ru+2].c1cc(-c2ccc3cccnc3n2)nc(-c2ccc3cccnc3n2)c1.c1ccc2cc3nc4c5cccnc5c5ncccc5c4nc3cc2c1 | SK-MEL-28 |  | light 633 nm, oxygen 1% | reference: dark EC50 over light EC50 | phototherapeutic index | 1 |
| O=C(CSc1cccc[n+]1[O-])c1ccccc1Br | LDR | silenced CMV-GFP reporter derepression, qHTS |  |  | Emax | 80% |
| O=C(NCc1ccc(OC(F)(F)F)cc1)[C@H]1CCCN(c2ncnc3[nH]c(-c4ccncc4)cc23)C1 | NCI-H2228 | cell growth or viability, MTT | 5 µg/mL, 72 h |  | inhibition | 80.4% |
| CNS(=O)(=O)Nc1nccc(Cc2c(C)c3ccc(Oc4ncccc4F)cc3oc2=O)c1F | SNU-423 | cell viability | 7 days |  | IC50 | 0.443 µM |
| Cc1cc(NC2CCN(C)CC2)ccc1-c1cc2c(N3CCC[C@H](C(=O)NCc4ccc(OC(F)(F)F)cc4)C3)ncnc2[nH]1 | NCI-H2228 | cell growth or viability, MTT | 0.04 µg/mL, 72 h |  | inhibition | 71.7% |
| CC(C)c1ccc(N(C)c2ccc3c(c2)OCC[C@H]3CNc2cnccc2C(=O)O)cc1 | HCC2935 | cell growth or viability, ATP luminescence | 7 days |  | IC50 | ≥ 10 µM |
| O=C(C[Se]C(=O)c1ccc2ccccc2n1)Nc1cccc(C(F)(F)F)c1 | NCI60 NSCLC subpanel | NCI60 five-dose screen |  |  | GI50 | 1.92 µM |
| O=C(NCc1ccc(OC(F)(F)F)cc1)[C@H]1CCCN(c2ncnc3[nH]c(-c4ccc(C(F)(F)F)cc4)cc23)C1 | NCI-H2228 | cell growth or viability, MTT | 0.04 µg/mL, 72 h |  | inhibition | 11.3% |

Excerpt of the above:
| Compound | cell line | test | conditions | how to read | measurement | result |
| --- | --- | --- | --- | --- | --- | --- |
| COC(=O)c1cc(NC2=NC(=O)C(=Cc3ccc(C)cc3)S2)ccc1OC(C)=O | MCF7 | GC-MS, item: Adenosine | 1 µM | reference: DMSO | metabolite level | 0.01 fold change |
| Cc1ccncc1.[Cl-].[Cl-].[Ru+2].c1cc(-c2ccc3cccnc3n2)nc(-c2ccc3cccnc3n2)c1.c1ccc2cc3nc4c5cccnc5c5ncccc5c4nc3cc2c1 | SK-MEL-28 |  | light 633 nm, oxygen 1% | reference: dark EC50 over light EC50 | phototherapeutic index | 1 |
| CCN(C(=O)c1cc(F)ccc1Oc1nncnc1N1CCC2(C1)CN([C@H](CCCN(C)CCOC)C(C)C)C2)C(C)C | BXPC-3 | cell growth or viability | 7 days |  | GI50 | > 10 µM |
